Experimental data gathered from unrelated publications.
Lines come from different studies, so protocols differ. ± gives the spread as reported.
B1: enzyme (Nitrosopumilus maritimus, UniProt A9A5X4); chain MDSQKFDSIIFDCDGVLVDITQSYDKTIDKTCRYVLKEFAKIDSITIDHKIIDGFKSSGGFNDEVDLVYAAILSLYTANKLNKKPSEFIYDVISNTDKTGIRSVQSYLESIYDVSEFLSKLGSLGDRHNNPVYSIFDQFFFGPELYGKLFDKQSKFSEEGMISNDKVILSVSLLETLQKEFGKKIAVVTGRGIESIRYSLKDMMDYFDTKNSAFLEDEPRELAKPNPATLIRAIQSMESKNCLYVGDSMEDYMMAKDAAQAGHSTTFCAIVGTSTNPEDRRKLFADSGVEMILESINDIPKVLNLV
B2: enzyme (Bacteroides fragilis, UniProt Q5LAA3); chain MAMLEKIQETAAFLKGKMHTSPETAIILGTGLGSLANEITEKYEIKYEDIPNFPVSTVEGHSGKLIFGKLGNKEIMAMQGRFHYYEGYSMKEVTFPVRVMRELGIKTLFVSNASGGTNPEFEIGDLMIITDHINYFPEHPLRGKNIPYGPRFPDMSEAYDKELIRKADAIAAEKGIKVQHGIYIGTQGPTFETPAEYKLFHILGADAVGMSTVPEVIVANHCGIKVFGISVVTDLGVEGKIVEVSHEEVQKAADAAQPKMTTIMRELINRA
B3: spt (Sphingomonas paucimobilis, UniProt Q93UV0); chain TEAAAQPHALPADAPDIAPERDLLSKFDGLIAERQKLLDSGVTDPFAIVMEQVKSPTEAVIRGKDTILLGTYNYMGMTFDPDVIAAGKEALEKFGSGTNGSRMLNGTFHDHMEVEQALRDFYGTTGAIVFSTGYMANLGIISTLAGKGEYVILDADSHASIYDGCQQGNAEIVRFRHNSVEDLDKRLGRLPKEPAKLVVLEGVYSMLGDIAPLKEMVAVAKKHGAMVLVDEAHSMGFFGPNGRGVYEAQGLEGQIDFVVGTFSKSVGTVGGFVVSNHPKFEAVRLACRPYIFTASLPPSVVATATTSIRKLMTAHEKRERLWSNARALHGGLKAMGFRLGTETCDSAIVAVMLEDQEQAAMMWQALLDGGLYVNMARPPATPAGTFLLRCSICAEHTPAQIQTVLGMFQAAGRAVGVIG
B4: human hnRNP C; sequence looked up; chain ASNVTNKTDPRSMNSRVFIGNLNTLVVKKSDVEAIFSKYGKIVGCSVHKGFAFVQYVNERNARAAVAGEDGRMIAGQVLDINLAAEPKVNRGKAGVKRSAAEMYGSVTEHPSPSPLLSSSFDLDYDFQRDYYDRMYSYPARVPPPPPIARAVVPSKRQRVSGNTSRRGKSGFNSKSGQRGSSKSGKLKGDDLQAIKKELTQIKQKVDSLLENLEKIEKEQSKQAVEMKNDKSEEEQSSSSVKKDETNVKMESEGGADDSAEEGDLLDDDDNEDRGDDQLELIKDDEKEAEEGEDDRDSANGEDDS
B5: enzyme (Sargassum horneri, UniProt A0A097IUG6); chain SPMAVASPSGFQKAMKTTLSSLGIDKATGITKPTTIYRNLPYPEVFKHEEQNKEGEVTKNGTFCVSTGQFTGRSPKDKYFVKQAPSDGKLDWGKINKGVASEVYKNIYDKAVKHYNTNVDKMYVFDGYCGTSPKSRKNVRIITELAWQHHFAKNMFIRPETEEEVANFVPDFTIINACKIVNEDYKELGLNSEVAVVFNVEESKAVITGTWYGGEMKKGIFSMMNYWLPLDGVMSMHCSANKGKDGDTALFFGLSGTGKTTLSADPARYLIGDDEHGWDDDGIFNFEGGCYAKTVNLSRENEPEIYDAIKRDALLENVIIKKNGEPDYADVSRTENTRVSYPIYHIDNYEPSGMGDHPKSIVFLTCDAFGVLPPVSRLSPGQAMYHFLSGYTAKVAGTERGVTEPTPNFSAGFGAAFLTLHPTVYADLLQEKLDKHGTQCFLINTGWTGGGYGVGKRMSIKATRACVDAVLDGSINKTKFTKEPVFGFEVPQELPNVPSKVLNPREAWSDKASYDATRTKLGDMFKNNFTKFVKPGMTDYTAYGPK
B6: enzyme A167S/Y136L (Bradyrhizobium diazoefficiens, UniProt Q45222); chain MIQTERAVQQVLEWGRSLTGFADEHAVEAVRGGQYILQRIHPSLRGTSARTGRDPQDETLIVTFYRELALLFWLDDCNDLGLISPEQLAAVEQALGQGVPCALPGFEGCAVLRASLATLAYDRRDYAQLLDDTRCLSAALRAGHAQAVAAERWSYAEYLHNGIDSISYANVFCCLSLLWGLDMATLRARPAFRQVLRLISAIGRLQNDLHGCDKDRSAGEADNAVILLLQRYPAMPVVEFLNDELAGHTRMLHRVMAEERFPAPWGPLIEAMAAIRVQYYRTSTSRYRSDAVRGGQRAPA
B7: enzyme (Lactiplantibacillus plantarum, UniProt Q06115); chain CTAITYQSYNNYFGRNFDYEISYNEMVTITPRKYPLVFRKVENLDHHYAIIGITADVESYPLYYDAMNEKGLCIAGLNFAGYADYKKYDADKVNITPFELIPWLLGQFSSVREVKKNIQKLNLVNINFSEQLPLSPLHWLVADKQESIVIESVKEGLKIYDNPVGVLTNNPNFDYQLFNLNNYRALSNSTPQNSFSEKVDLDSYSRGMGGLGLPGDLSSMSRFVRAAFTKLNSLSMQTESGSVSQFFHILGSVEQQKGLCEVTDGKYEYTIYSSCCDMDKGVYYYRTYDNSQINSVSLNHEHLDTTELISYPLRSEAQYYAVN
B8: enzyme (UniProt A0A063Y6V3); chain MNTRVAIIGAGPCGLAQLRAFQSAAAKGAAIPELVCFEKQSDWGGMWNYTWRTGVDEHGEPVHGSMYRYLWSNGPKECLEFADYTFDEHFGRPIGSYPPREVLWDYIKGRVEKAGVRDYIRFNTAVRQVSYDETSGLFSVTVQDHSNNRVYTETFDYVVNACGHFSTPNTPYFEGFERFGGRVLHAHDFRDALEFKDKDILVVGSSYSAEDIGSQCYKYGARSITSCYRSAPMGYQWPQNWEEKPLLQRVDSDTAWFADGSHKRIDAIILCTGYQHHFPFLPDSLRLITENRLWPLKLYKGIFWEDNPKFLYLGMQDQWYSFNMFDAQAWYARDVILGRISLPGKAEMQAENQAWREREEKLQTAQEMFEFQGSYIQHLIDATDYPSFDIQAVNETFLAWKHDKYEDIMGYRNKCYRSLMTGTLATPHHTPWLDALDDSLEAYLQETPRLKSAV
B9: enzyme (Thermotoga maritima, UniProt Q9WXS3); chain MRLNRETIKDRAAWEKIGVRPPYFDLDEVEKNTKEQPKWVHFGGGNIFRGFVAAVLQNLLEEGKEDTGINVIELFDYEVIDKVYKPYDNLSIAVTIKPDGDFEKRIIASVMEALKGDPSHPDWERAKEIFRNPSLQLASLTITEKGYNIEDQAGNLFPQVMEDMKNGPVSPQTSMGKVAALLYERFKAGRLPIALLSLDNFSRNGEKLYSSVKRISEEWVKSGLVEKDFIDYLEKDVAFPWSMIDKIVPGPSEFIKEHLEKLGIEGMEIFVTSKRTHIAPFVNMEWAQYLVIEDSFPNGRPKLEGADRNVFLTDRETVEKAERMKVTTCLNPLHTALAIFGCLLGYKKIADEMKDPLLKKLVEGVGEEGIKVVVDPGIINPREFLNEVINIRLPNPYLPDTPQRIATDTSQKMPIRFGETIKAYHERPDLDPRNLKYIPLVIAGWCRYLMGIDDEGREMQLSPDPLLENLRSYVSKIKFGDPESTDDHLKPILSSQQLFRVNLYEVGLGEKIEELFKKMITGPRAVRKTLEEVVGREDG
B10: enzyme (Haliscomenobacter hydrossis, UniProt F4KU78); chain MKQKPAFIPYAGAQFEPEEMLSKSAEYYQFMDHRRTVREFSNRAIPLEVIENIVMTASTAPSGAHKQPWTFVVVSDPQIKAKIRQAAEKEEFESYNGRMSNEWLEDLQPFGTDWHKPFLEIAPYLIVVFRKAYDVLPDGTQRKNYYVQESVGIACGFLLAAIHQAGLVALTHTPSPMNFLQKILQRPENERPFLLVPVGYPAEGAMVPDLQRKDKAAVMVVY
B11: acsA (Pseudomonas chlororaphis, UniProt Q5CD72); chain MRDYEHVVESFDYLQSATQDLHGELTALNACVECCDRHAHGEAVALYCEAQDGHAERYRFRDLQRQAARFGNFLREQGVKPGDRVAGLMPRTVELLIAILGTWRIGAVYQPLFTAFGPKAIEQRLNCSNARWIVTDPHNRPKLDDVTDCPSIVVTGGAPQNPADHHFWSALNRQADDCAPVLLDASAPFLLMCTSGTTGPAKPLEVPLSAILAFKGYMRDAIDLRADDRFWNLADPGWAYGLYYAVTGPLACGYATLFYDGPFTVESTRHIIAKYAINNLAGSPTAYRFLIAAGAEFADAVRGRLRAVSSAGEPLNPQVVRWFAEQLGVVIHDHYGQTEIGMVLCNHHGLRHPVREGSAGYAVPGYRIVVLDKAHRELPAGQPGVLAVDRERSPLCWFDGYLGMPTQAFAGRYYLSGDIVELNDDGSISFVGRNDDLITTSGYRVGPFDVESALIEHPAVVEAAVIGKPDPQRTELIKAFVVLNTPYLPSPELAEELRLHVRQRLAAHAYPREMEFVDHLPKTPSGKLQRFILRNQEIAKQQALG
Chain of UniProt P09546 (whole entry, looked up): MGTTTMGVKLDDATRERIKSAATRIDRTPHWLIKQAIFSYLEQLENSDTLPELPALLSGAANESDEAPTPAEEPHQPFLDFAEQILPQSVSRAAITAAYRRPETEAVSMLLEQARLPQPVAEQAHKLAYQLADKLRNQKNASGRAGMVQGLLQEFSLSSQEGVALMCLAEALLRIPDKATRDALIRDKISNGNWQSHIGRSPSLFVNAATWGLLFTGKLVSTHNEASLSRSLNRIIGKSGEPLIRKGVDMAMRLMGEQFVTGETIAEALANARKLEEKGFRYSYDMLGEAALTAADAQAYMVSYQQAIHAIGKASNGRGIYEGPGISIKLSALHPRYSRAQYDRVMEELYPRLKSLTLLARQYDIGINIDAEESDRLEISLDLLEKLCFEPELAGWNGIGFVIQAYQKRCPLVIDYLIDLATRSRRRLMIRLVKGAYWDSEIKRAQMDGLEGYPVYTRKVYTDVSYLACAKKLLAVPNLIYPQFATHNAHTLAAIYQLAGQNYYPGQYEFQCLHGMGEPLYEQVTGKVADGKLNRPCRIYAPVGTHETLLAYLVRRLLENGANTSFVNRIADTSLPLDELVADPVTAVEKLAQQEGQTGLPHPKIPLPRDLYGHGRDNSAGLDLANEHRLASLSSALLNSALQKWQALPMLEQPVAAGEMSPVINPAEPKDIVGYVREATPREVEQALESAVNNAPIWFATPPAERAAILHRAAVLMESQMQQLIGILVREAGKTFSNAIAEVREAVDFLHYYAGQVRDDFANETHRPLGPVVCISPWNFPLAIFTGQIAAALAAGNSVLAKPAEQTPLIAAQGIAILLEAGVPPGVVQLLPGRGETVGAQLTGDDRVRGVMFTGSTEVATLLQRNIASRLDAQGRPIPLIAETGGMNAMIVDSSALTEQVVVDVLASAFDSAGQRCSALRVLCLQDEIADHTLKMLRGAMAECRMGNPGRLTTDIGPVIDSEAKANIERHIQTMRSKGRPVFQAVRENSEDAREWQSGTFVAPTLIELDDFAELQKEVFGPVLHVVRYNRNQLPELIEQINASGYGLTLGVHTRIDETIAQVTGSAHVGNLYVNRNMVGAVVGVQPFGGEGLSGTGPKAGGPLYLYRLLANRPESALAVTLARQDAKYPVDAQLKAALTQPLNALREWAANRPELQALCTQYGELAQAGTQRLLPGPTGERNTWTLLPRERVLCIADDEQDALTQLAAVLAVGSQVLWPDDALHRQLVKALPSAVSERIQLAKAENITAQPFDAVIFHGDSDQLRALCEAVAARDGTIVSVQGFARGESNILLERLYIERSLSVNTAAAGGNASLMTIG
Chain of UniProt A6NK06 (whole entry, looked up): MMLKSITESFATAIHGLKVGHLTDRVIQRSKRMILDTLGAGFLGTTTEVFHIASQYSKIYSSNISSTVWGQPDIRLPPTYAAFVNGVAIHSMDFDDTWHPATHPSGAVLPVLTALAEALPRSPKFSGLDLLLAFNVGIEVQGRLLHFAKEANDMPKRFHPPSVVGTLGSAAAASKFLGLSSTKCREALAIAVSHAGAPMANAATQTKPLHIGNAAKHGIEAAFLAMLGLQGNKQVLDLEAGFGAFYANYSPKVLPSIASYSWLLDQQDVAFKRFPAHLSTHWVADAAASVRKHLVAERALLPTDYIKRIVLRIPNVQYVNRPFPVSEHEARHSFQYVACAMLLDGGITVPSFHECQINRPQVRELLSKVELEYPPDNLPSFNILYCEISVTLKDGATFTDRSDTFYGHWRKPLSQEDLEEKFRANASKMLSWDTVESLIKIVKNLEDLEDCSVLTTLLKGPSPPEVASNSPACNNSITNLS
Chain of UniProt P26368 (whole entry, looked up): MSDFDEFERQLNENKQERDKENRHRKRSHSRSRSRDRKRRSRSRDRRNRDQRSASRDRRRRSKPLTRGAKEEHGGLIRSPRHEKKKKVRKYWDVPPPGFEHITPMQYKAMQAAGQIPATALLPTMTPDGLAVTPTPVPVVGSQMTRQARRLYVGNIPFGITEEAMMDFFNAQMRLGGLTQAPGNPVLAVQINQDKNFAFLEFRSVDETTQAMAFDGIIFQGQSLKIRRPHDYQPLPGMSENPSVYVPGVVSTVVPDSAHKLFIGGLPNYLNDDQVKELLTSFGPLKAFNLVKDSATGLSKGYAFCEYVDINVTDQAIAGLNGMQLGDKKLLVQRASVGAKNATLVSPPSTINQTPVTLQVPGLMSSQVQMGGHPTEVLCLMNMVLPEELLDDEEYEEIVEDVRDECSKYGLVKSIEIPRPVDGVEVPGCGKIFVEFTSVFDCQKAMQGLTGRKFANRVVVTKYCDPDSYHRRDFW

| Substance | target or system | assay | system | conditions | scale | quantity | result |
| --- | --- | --- | --- | --- | --- | --- | --- |
| B1 (enzyme) | N[C@H](COP(=O)(O)O)Cc1c[nH]cn1 | steady-state kinetics |  | pH 7.8, 25 °C |  | kcat/Km | 10800 ± 2500 M⁻¹ s⁻¹ |
| B2 (enzyme) | OC[C@H]1O[C@@H](n2cnc3c(O)ncnc32)[C@H](O)[C@@H]1O | steady-state kinetics |  |  |  | kcat/Km | 42000 M⁻¹ s⁻¹ |
| B3 (spt) | CCCCCCCCCCCCCCCC(=O)SCCNC(=O)CCNC(=O)[C@H](O)C(C)(C)COP(=O)(O)OP(=O)(O)OC[C@H]1O[C@@H](n2cnc3c(N)ncnc32)[C@H](O)[C@@H]1OP(=O)(O)O | steady-state kinetics |  | with: PLP |  | kcat/Km | 21000 M⁻¹ s⁻¹ |
| B4 (human hnRNP C) | CYB5R4 knockout human cells | PP4 interaction, 3xFLAG-PP4C IP-MS |  | concentration not given | relative to: CYB5R4 KO over parental | log2 fold change | 0.49 |
| putA (Escherichia coli, UniProt P09546) | CC1=CC(=O)c2ccccc2C1=O | steady-state kinetics |  | pH 7.4, 20 °C, with: proline 200 mM |  | kcat/Km | 44000 ± 3100 M⁻¹ s⁻¹ |
| B5 (enzyme) | Nc1ncnc2c1ncn2[C@@H]1O[C@H](COP(=O)(O)OP(=O)(O)O)[C@@H](O)[C@H]1O | steady-state kinetics |  | pH 6.5, 25 °C, with: 16 mM PEP |  | kcat/Km | 280000 M⁻¹ s⁻¹ |
| B6 (enzyme A167S/Y136L) | C=C1CC[C@@H]2C(C)(C)CCC[C@@]2(C)[C@@H]1CC/C(C)=C/COP(=O)(O)OP(=O)(O)O | steady-state kinetics |  |  |  | kcat/Km | 13000 M⁻¹ s⁻¹ |
| GUUGUAUAU (ssRNA) | U2AF2 148-342 (Homo sapiens, UniProt P26368) | sequencing of bound RNA | RNA | motif only |  | Kd | 7.6 µM |
| human pyruvate kinase PKM | CYB5R4 knockout human cells | PP4 interaction, 3xFLAG-PP4C IP-MS |  | concentration not given | relative to: CYB5R4 KO over parental | log2 fold change | 1.33 |
| B7 (enzyme) | C[C@H](CCC(=O)NCC(=O)O)[C@H]1CC[C@H]2[C@@H]3[C@H](O)C[C@@H]4C[C@H](O)CC[C@]4(C)[C@H]3C[C@H](O)[C@]12C | steady-state kinetics |  | pH 6.2, 37 °C |  | kcat/Km | 597000 ± 96700 M⁻¹ s⁻¹ |
| B8 (enzyme) | NC(=O)C1=CN([C@@H]2O[C@H](COP(=O)(O)OP(=O)(O)OC[C@H]3O[C@@H](n4cnc5c(N)ncnc54)[C@H](O)[C@@H]3O)[C@@H](O)[C@H]2O)C=CC1 | steady-state kinetics |  | pH 7, 30 °C, cofactor varied |  | kcat/Km | 10400 M⁻¹ s⁻¹ |
| enzyme N248Y/R246H (Arabidopsis thaliana, UniProt O24495) | C[C@@H](O)C(=O)SC[C@H](NC(=O)CC[C@H](N)C(=O)O)C(=O)NCC(=O)O | steady-state kinetics |  | pH 7.2, 25 °C |  | kcat/Km | 7000 ± 5000 M⁻¹ s⁻¹ |
| ACOD1 (Homo sapiens, UniProt A6NK06) | O=C(O)/C=C(/CC(=O)O)C(=O)O | steady-state kinetics |  |  |  | kcat/Km | 6090 M⁻¹ s⁻¹ |
| enzyme (Pseudomonas poae, UniProt A0A2S9EJ63) | O=Cc1ccc(C=O)o1 | steady-state kinetics |  | pH 8, 30 °C, with: 2 µM FAD |  | kcat/Km | 3.36 M⁻¹ s⁻¹ |
| enzyme (Oryza sativa, UniProt Q6ZGQ4) | O=[N+]([O-])c1ccc(O[C@@H]2OC[C@H](O)[C@H](O)[C@H]2O)cc1 | steady-state kinetics |  | pH 4, 40 °C, apparent |  | kcat/Km | 2.2 M⁻¹ s⁻¹ |
| B9 (enzyme) | O=C(O)[C@@H](O)[C@@H](O)[C@H](O)[C@H](O)CO | steady-state kinetics |  | pH 8.5, with: NAD |  | kcat/Km | 6670 M⁻¹ s⁻¹ |
| B10 (enzyme) | N[C@@H](Cc1ccc(O)c(I)c1)C(=O)O | steady-state kinetics |  | pH 7.4, 25 °C, with: dithionite |  | kcat/Km | 20000 ± 2000 M⁻¹ s⁻¹ |
| B11 (acsA) | C#CCCC(=O)O | steady-state kinetics |  | pH 7 |  | kcat/Km | 50 ± 16.7 M⁻¹ s⁻¹ |

Some of these lines once more:
| Substance | target or system | assay | system | conditions | scale | quantity | result |
| --- | --- | --- | --- | --- | --- | --- | --- |
| B11 (acsA) | C#CCCC(=O)O | steady-state kinetics |  | pH 7 |  | kcat/Km | 50 ± 16.7 M⁻¹ s⁻¹ |
| enzyme (Pseudomonas poae, UniProt A0A2S9EJ63) | O=Cc1ccc(C=O)o1 | steady-state kinetics |  | pH 8, 30 °C, with: 2 µM FAD |  | kcat/Km | 3.36 M⁻¹ s⁻¹ |
